# Assay results of several laboratories.
# Each line is one published result; not all experiments were run side by side. Several values in a cell are separate wells, animals, samples, runs or records. Numbers after ± are the reported error.
# Sequence of UniProt P20813 (whole entry, looked up): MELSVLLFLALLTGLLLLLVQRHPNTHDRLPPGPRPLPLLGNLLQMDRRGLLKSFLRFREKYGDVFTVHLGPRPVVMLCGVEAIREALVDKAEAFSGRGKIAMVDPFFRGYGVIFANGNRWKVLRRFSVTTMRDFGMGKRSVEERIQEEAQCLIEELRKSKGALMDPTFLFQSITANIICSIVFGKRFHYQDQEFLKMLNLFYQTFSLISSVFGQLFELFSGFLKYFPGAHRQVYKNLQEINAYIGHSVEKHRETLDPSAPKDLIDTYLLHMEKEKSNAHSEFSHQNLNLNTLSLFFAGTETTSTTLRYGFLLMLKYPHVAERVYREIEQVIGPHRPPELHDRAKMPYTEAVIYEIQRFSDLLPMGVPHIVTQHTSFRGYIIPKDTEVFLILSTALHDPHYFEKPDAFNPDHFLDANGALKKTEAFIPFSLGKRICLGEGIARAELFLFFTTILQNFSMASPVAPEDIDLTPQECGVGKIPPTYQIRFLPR
# Sequence of UniProt Q9Y5S2 (whole entry, looked up): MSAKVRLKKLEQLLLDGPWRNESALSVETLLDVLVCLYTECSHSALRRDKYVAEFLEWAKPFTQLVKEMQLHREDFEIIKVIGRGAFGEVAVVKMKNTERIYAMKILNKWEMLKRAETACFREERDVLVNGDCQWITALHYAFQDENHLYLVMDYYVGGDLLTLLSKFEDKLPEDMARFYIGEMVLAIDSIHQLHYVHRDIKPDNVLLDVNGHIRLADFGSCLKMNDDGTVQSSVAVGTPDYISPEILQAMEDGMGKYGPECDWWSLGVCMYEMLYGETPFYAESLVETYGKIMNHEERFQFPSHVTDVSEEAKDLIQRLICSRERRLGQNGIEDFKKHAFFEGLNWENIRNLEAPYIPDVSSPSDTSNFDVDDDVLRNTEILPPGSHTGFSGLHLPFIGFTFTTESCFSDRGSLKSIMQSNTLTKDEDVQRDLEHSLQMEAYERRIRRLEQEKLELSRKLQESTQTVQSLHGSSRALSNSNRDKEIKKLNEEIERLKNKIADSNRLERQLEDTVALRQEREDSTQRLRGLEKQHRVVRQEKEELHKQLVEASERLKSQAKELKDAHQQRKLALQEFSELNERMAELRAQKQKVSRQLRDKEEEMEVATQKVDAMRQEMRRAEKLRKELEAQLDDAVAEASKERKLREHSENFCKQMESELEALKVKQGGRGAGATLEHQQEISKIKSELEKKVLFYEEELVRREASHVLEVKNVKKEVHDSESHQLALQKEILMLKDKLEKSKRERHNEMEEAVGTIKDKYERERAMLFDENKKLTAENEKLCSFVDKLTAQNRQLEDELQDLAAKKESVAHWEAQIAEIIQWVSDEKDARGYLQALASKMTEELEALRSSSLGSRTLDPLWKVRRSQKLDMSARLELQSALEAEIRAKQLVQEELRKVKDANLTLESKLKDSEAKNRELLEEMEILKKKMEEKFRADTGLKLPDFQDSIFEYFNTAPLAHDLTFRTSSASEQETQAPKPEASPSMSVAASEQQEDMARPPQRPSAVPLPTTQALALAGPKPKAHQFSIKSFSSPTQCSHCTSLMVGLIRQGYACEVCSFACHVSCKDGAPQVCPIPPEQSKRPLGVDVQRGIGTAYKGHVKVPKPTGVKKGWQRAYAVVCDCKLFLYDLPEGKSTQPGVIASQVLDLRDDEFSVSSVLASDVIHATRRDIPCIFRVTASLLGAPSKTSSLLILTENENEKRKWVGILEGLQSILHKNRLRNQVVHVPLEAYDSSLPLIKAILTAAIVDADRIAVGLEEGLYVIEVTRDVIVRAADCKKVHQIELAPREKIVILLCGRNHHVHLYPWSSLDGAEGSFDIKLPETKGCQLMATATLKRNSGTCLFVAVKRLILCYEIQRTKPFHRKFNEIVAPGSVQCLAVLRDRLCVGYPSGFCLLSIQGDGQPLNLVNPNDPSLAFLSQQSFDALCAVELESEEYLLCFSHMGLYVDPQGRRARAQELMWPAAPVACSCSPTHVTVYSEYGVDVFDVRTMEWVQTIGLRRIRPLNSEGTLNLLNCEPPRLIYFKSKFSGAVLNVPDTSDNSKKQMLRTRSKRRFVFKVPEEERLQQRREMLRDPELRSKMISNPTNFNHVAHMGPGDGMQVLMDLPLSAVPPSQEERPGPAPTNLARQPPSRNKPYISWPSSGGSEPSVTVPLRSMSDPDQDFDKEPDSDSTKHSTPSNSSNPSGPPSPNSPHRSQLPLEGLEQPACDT
SMILES,tested on,test,test system,setting,how to read,measurement,result
CCCC[C@H](NC(C)=O)C(=O)N[C@@H](CO)C(=O)N[C@H](C(=O)N1CCC[C@H]1C(=O)N[C@]1(C)CCCCCCC=CCCC[C@@](C)(C(=O)N[C@@H](Cc2ccccc2)C(=O)N[C@@H](CCCCN)C(=O)N[C@@H](CCCNC(=N)N)C(=O)N[C@@H](CC(C)C)C(=O)N[C@@H](CCC(N)=O)C(N)=O)NC(=O)[C@H](CCCNC(=N)N)NC(=O)[C@H](CCCC)NC(=O)[C@H](CC(C)C)NC(=O)[C@H](CCCNC(=N)N)NC(=O)[C@H](CCCNC(=N)N)NC(=O)[C@H](CCCNC(=N)N)NC1=O)[C@@H](C)O,proteinase K,LC-MS,,"25 µM, 492.1 min, pH 7.4",,remaining peptide,46.2%
c1ccc(-c2n[nH]cc2-c2ccnc3ccccc23)nc1,RCK2 (Candida albicans),"kinase binding, MIB/MS competition",Candida albicans lysate,1 µM,reference: DMSO,log2 fold change,0.1
CC1CCC2C(C)(C)C(O)CCC2(C)C12Cc1c(O)cc(CO)c(C=O)c1O2 (stereo not drawn),StaI (Stachybotrys chartarum),substrate,,"30 min, pH 7.0, 45 °C",,kcat,0.072 s⁻¹
CN1CCCNC(=O)CCC(=O)NCCCN(C)CCCNc2cccc3c2C(=O)c2cccc(c2C3=O)NCCC1,telomeric G-quadruplex DNA,"DNA thermal stabilisation, CD melting",,"concentration not given, pH 7.4, with: 100 mM KCl",,ΔTm,2.8 ± 0.1 °C
Cc1nn(-c2cccc(N)c2)c(=O)c2cnc(Nc3ccc(N4CCNCC4)cc3)nc12,"Serine/threonine-protein kinase MRCK beta (CDC42BPB, Homo sapiens, UniProt Q9Y5S2)",SelectScreen kinase,,,,IC50,> 10000 nM
Cc1ncsc1-c1ccc(C(C)NC(=O)C2CC(O)CN2C(=O)C(NC(=O)CCCCCCCCCCN2CCCC(Nc3ncc(Cl)c(Nc4ccccc4S(=O)(=O)C(C)C)n3)C2)C(C)(C)C)cc1 (stereo not drawn),22Rv1,"RNA-seq, refers to: ZKSCAN4 mRNA",,concentration not given,reference: DMSO,log2 fold change,-1.52
Nc1ncc(-c2cc(-c3cnn(CC(F)(F)F)c3)ncc2F)nc1C(=O)NC1CNCC(F)C1 (stereo not drawn),MAP3K1,KINOMEscan,,1 µM,reference: DMSO control,remaining binding,100%
CC(C)(CO)Cc1cn(C2CCCN(C(=O)c3ccc4c(c3)CCOC4(C)C)CC2)nn1 (stereo not drawn),FSP1 L323A,"resorufin formation, inhibitor",,"with: NADH, resazurin",,IC50,no inhibition
C=CC(=O)N1[C@@H](c2ccc3c(c2)OCO3)c2[nH]c3ccccc3c2C[C@H]1C(=O)N1CCN(C)CC1,human cyclin E1 wild type-3xFLAG:CDK2,"co-IP with TMT proteomics, refers to: PCMT1",,"concentration not given, P22061",reference: wild type DMSO,relative co-enrichment,119%
CNC(=O)C1CCCN(C(=O)C2CC3CCC2N3C(=O)[C@@H]2C[C@@H](O)CN2C(=O)NCc2cccc(Cl)c2F)C1 (mixture of isomers),"Cytochrome P450 2B6 (CYP2B6, Homo sapiens, UniProt P20813)",preincubation with NADPH,human,50 µM,reference: negative control,remaining activity,108% and 96.6% and 101%
COC1CN([C@H]2CC[C@H]([C@@]3(C)Oc4c(Cl)cc(C(=O)NCc5c(SC)cc(C)[nH]c5=O)c(C)c4O3)CC2)C1,,"RNA-seq, refers to: BEND7 mouse homolog","mouse, HT-1376 xenograft, whole blood",dose not given,reference: vehicle,log2 fold change,5.54
CN1CCCNC(=O)c2cccc(c2)C(=O)NCCCN(C)CCCNc2cccc3c2C(=O)c2cccc(c2C3=O)NCCC1,telomeric G-quadruplex DNA,"DNA binding, UV-Vis titration",,,reference: Ka telomeric G1 over double-stranded DNA,selectivity ratio,86
Fc1ccc(Nc2nc(NC3CCCCC3)c3cc(C(F)(F)F)ccc3n2)cc1F,β2AR/β1AR TM2 chimera,"β-arrestin2 recruitment, antagonist, BRET",,with: isoprenaline 1 µM,,pIC50,6.5
CNS(=O)(=O)Nc1nccc(Cc2c(C)c3ccc(Oc4ncccc4F)cc3oc2=O)c1F,RL95-2,cell viability,,7 days,,IC50,5.04 nM
C1=NCCCN=Cc2ccc([nH]2)-c2nc3ccccc3nc2-c2ccc1[nH]2,human ACTN3 291-bp linear dsDNA,high-resolution melt,,5.3 µM,,melting temperature,83 °C
C=CC(=O)Nc1cccc(Cn2ncc3cnc(Nc4cnn(CCOC)c4)nc32)c1,human ABL1(M351T)-phosphorylated,KINOMEscan,,100 nM,reference: control,binding,8.5%
CC1(C)C[N+]2=Cc3ccc4[n]3[Au-]23[n]2c(ccc2-c2nc5ccccc5nc2-4)C=[N+]3C1.F[P-](F)(F)(F)(F)F,human ACTN3 291-bp linear dsDNA,high-resolution melt,,80.8 nM,,melting temperature,83.1 °C
CC[C@H]1OC(=O)[C@H](C)[C@@H](OC(=O)Cc2ccc(Cl)cc2)[C@H](C)[C@@H](O[C@@H]2O[C@H](C)C[C@H](N(C)C)[C@H]2O)[C@](C)(OC)C[C@@H](C)C(=O)[C@H](C)[C@@H](O)[C@]1(C)O,Escherichia coli ribosome,"in vitro transcription-translation, inhibitor",,,,IC50,520 nM
